# Assay results collected from several papers.
# Each line is one published result; not all experiments were run side by side. Several values in a cell are separate wells, animals, samples, runs or records.
# PRKCB isoform beta-II: Protein kinase C beta type, isoform beta-II (PRKCB, Homo sapiens, UniProt P05771)
# PRKCB isoform beta-I: Protein kinase C beta type, isoform beta-I (PRKCB, Homo sapiens, UniProt P05771)
SMILES,target,test,conditions,scale,endpoint,value
C=CC(=O)N1Cc2nc(-c3cc(-c4cc(Cl)cnc4Cl)c(F)cc3F)n(-c3ccncn3)c2C1,PRKCB isoform beta-II,kinome panel,1 µM,,inhibition,12.2%
CCn1cc(C(=O)O)c(=O)c2c(N)c(F)c(NC3CCCCC3)cc21,PRKCB isoform beta-I,kinase activity,"0.1 µM, together with: ATP at Km",,inhibition,5.6%
CNC(=O)C[C@H](Cc1ccc(C#N)cc1)NC(=O)c1cc(-c2ccc(CN[C@H](C)c3ccc(C)cc3)o2)ccc1Cl,PRKCB isoform beta-I,"enzyme activity, KinaseProfiler panel",1 µM,,remaining activity,98%
C=CC(=O)Nc1cccc(-c2cnc3[nH]cc(C(=O)NC(C)(C)C)c3n2)c1,PRKCB isoform beta-I,"enzyme activity, inhibitor",0.1 µM,,inhibition,-1%
COc1c(OCCCN2CCOCC2)ccc2c1N=C(NC(=O)c1cnc(N)nc1)N1CCN=C21,PRKCB isoform beta-I,"kinase activity, inhibitor",1 µM,relative to: untreated control,remaining activity,97%
O=c1c(-c2ccc(Cl)c(CN3CCOCC3)c2)coc2cc(O)ccc12,PRKCB isoform beta-II,"enzyme activity, inhibitor, KinaseProfiler","1 µM, together with: ATP at Km",,remaining activity,99%
CN1CCN(Cc2ccc(-c3ccc(CO[C@H]4CCC[C@@H]4NC(=O)c4cc(-c5cnn(C)c5)cnc4N)cc3)cc2)CC1,"PRKCB (Homo sapiens, UniProt P05771)","enzyme activity, inhibitor",0.1 µM,,inhibition,2%
NC(=O)[C@@H](O)C[C@H]1CCc2sc3ncnc(O[C@H]4CC[C@H](N5CCOCC5)CC4)c3c21,PRKCB isoform beta-I,radioisotope kinase,10 µM,,inhibition,8%
Cc1cccc(O[C@H]2CCC[C@@H](C(C)CNCc3ccncc3)C2)c1 (relative stereo),PRKCB isoform beta-II,kinome profiling,10 µM,,inhibition,-8%
CN1CC[C@@H](COc2cnc(C#N)cc2-c2ccn3nc(NC(=O)C4CC4)cc3c2)C1,"Protein kinase C beta type, beta-II isoform (PRKCB, Homo sapiens, UniProt P05771)",kinase activity,1 µM,,inhibition,2%
O=C(Cc1ccc(OCc2ccccc2)cc1)NC1(C(=O)O)CCN(C(=O)c2ccc(-c3cccc(Cl)c3)cc2)CC1,PRKCB isoform beta-I,"kinase activity, inhibitor","10 µM, together with: ATP at Km",,remaining activity,107%
O=C=[N][Ru-4]123([n]4c5ccc(O)cc5c5c6c(c7cc(F)c[n+]1c7c54)C(=O)NC6=O)[S+]1CC[S+]2CC[S+]3CC1 (stereo not shown),PRKCB isoform beta-I,enzyme activity,"100 nM, human enzyme, together with: 10 µM ATP",relative to: untreated,remaining activity,99%
COc1ccc(NC(=O)Nc2ccc3c(c2)C(=O)N(C(C)CO)CC(C)C(CN(C)Cc2ccc4c(c2)OCO4)O3)cc1 (stereo not shown),PRKCB isoform beta-I,"kinase activity, KinaseProfiler","0.03 µM, species human",relative to: control,remaining activity,103%
COCC12C(=O)NC3C4(C(OC)CC1O)C1CC5(O)C(OC)C(O)C(OC(C)=O)(C1C5OC(=O)c1ccccc1)C3(O)C(OC)C24 (stereo not shown),PRKCB isoform beta-II,"kinase activity, inhibitor, ProQinase kinase profiling",25 µM,relative to: control,remaining activity,91% and 96%
NC(=O)C[C@H]1CCc2sc3ncnc(O[C@H]4CC[C@H](N5CCOCC5)CC4)c3c21,PRKCB isoform beta-II,radioisotope kinase,10 µM,,inhibition,9%
Nc1ncc(-c2cc(-c3cnn(CC(F)(F)F)c3)ncc2F)nc1C(=O)NC1CNCC(F)C1 (stereo not shown),PRKCB isoform beta-I,enzyme activity,1 µM,relative to: DMSO control,remaining activity,99.6%

# For quick reference, copied from above:
SMILES,target,test,conditions,scale,endpoint,value
CN1CCN(Cc2ccc(-c3ccc(CO[C@H]4CCC[C@@H]4NC(=O)c4cc(-c5cnn(C)c5)cnc4N)cc3)cc2)CC1,"PRKCB (Homo sapiens, UniProt P05771)","enzyme activity, inhibitor",0.1 µM,,inhibition,2%
O=C=[N][Ru-4]123([n]4c5ccc(O)cc5c5c6c(c7cc(F)c[n+]1c7c54)C(=O)NC6=O)[S+]1CC[S+]2CC[S+]3CC1 (stereo not shown),PRKCB isoform beta-I,enzyme activity,"100 nM, human enzyme, together with: 10 µM ATP",relative to: untreated,remaining activity,99%
